Assay results from different studies.
Each numbered part is a random draw from the data of one study; scales do not carry over between parts. Positions count from the first letter of the parent shown.

Set 1
Target: Centromere-binding protein 1, full length, His-tagged (CBF1, Saccharomyces cerevisiae, UniProt P17106, residues 1-351)
Sequence of UniProt P17106 (whole entry, looked up): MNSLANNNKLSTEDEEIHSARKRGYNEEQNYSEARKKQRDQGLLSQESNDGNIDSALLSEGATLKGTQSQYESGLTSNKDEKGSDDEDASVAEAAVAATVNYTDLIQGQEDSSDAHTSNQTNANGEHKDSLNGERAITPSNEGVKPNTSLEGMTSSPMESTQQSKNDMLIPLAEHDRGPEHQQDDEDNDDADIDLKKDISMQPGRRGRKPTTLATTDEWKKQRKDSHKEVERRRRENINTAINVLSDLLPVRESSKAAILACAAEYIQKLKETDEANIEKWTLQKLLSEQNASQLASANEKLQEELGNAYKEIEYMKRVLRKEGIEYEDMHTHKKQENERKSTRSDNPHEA
Method: competition protein-binding microarray
Form: double-stranded DNA, one strand shown
Medium: in vitro
Tested at: 2 µM
Setting: whole 60-bp probe, lowest competitor level
Together with: Pho4 competitor, 0.05 µM
Reading: higher = stronger binding
Strand	fluorescence intensity [a.u.]
GGGAGGGAAGACTGGAACGTGCAAAGAAGCTATTCGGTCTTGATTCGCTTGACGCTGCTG	99.3
TACCTAACCCATTTGCACGTGTCGGTAATAAGAAAAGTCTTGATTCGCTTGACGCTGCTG	2350
CACGATAATTTATACGTAATCTGGCCCCTTCTTTCGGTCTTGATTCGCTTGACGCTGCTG	73.4
CATACCCAACCTTGCATCGTGGGTGAAGATATTTGTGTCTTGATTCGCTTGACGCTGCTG	74.3
ATCCTTTTGAATCGGCACGTGAATATACTAAAGCTTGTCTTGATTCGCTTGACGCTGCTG	1660
CGGGGTTAAGTTTCTCACGTGTTTTGCTTGCAGCAGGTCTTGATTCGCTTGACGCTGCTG	970
AAATTACTAAGTTGTCACCCTACTTACCCCGTATGAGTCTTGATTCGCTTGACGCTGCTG	77.3
CGGGGTTAAGTTTGGGGAGTGGGTGGCTTGCAGCAGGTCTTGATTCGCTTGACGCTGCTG	86.9
ACCCTGCCCTCATATCACCTGCGTTTCCGTTAAACTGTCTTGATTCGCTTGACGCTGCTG	93.9
AAAGCGGTAATTTGTCACGTTACTTCACATATCTATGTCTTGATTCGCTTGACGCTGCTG	866
CTTTCCCGATCTTGATATGTGGGTGTAGCACATTTGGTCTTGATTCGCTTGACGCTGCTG	80.1
AAAGCGGTAATTTGAAAGGTGGGTGCAGATATCTATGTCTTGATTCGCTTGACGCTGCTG	63.9
ACTAATGAATTGGTCCACGTTTAGCTTACTTCCCGAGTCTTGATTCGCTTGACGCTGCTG	86.8
GACAAATTAGATAATGAAAAAGATATGGGGTGGAAGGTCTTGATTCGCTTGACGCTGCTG	78.6
ATCATGGATGCCCTTTCCGTGATGGGAGTAACGAGAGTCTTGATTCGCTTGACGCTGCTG	69.7
TGCGCAACAACTTGTCAGGTGGGTGTATGTCTAGAAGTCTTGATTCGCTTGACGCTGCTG	171
CATACCCAACCTTGACGCGTGGGTGAAGATATTTGTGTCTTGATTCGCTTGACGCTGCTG	78
AAATTACTAAGTTTTCACGTGGGCTACCCCGTATGAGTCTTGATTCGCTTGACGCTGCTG	762
TTGCTTGCGCTTCTGCATGTGCTTGTGCTTGTGCTTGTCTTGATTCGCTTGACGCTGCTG	83.7
AGTCTGTGCTAGTCCCACGTGTGAATGCCAAGGTTGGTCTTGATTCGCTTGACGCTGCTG	488
TACTTTAAAGATATACACGCACGGAAATGGTTCCAAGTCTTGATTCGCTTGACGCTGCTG	82.4
CCCACCGTAAGGAAACACGTGGTGATGGTGGTATATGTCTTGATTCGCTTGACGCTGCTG	1030
TTAAGTCTATGCCAGCACATGTGGTGCTCAGTGCTGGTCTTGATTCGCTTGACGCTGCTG	118
AACCCGCTAACGAGTCACGTGGTGGTCAAGTAAGCAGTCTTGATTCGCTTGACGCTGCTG	10700
CGCTAAAATTATAACGGCGTGCTGTAGAGAAAAACCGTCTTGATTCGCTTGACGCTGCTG	105

Set 2
Target: ABI1, truncated, D143A, DHFR fusion (Arabidopsis thaliana, UniProt P49597)
Method: DHFR PCA, dose-response
Medium: yeast
Setting: Hill fit, mean, not affinity
Together with: (+)-ABA, dose series
Reading: lower = more sensitive
Starting sequence: PYL1, truncated, DHFR fusion (Arabidopsis thaliana, UniProt Q8VZS8); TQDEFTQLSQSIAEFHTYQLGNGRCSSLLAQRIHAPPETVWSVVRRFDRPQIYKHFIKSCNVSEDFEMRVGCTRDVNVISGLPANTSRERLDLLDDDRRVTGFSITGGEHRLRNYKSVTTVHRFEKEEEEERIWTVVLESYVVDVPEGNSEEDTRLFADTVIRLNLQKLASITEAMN
Change	ABA EC50 [µM]
E128P	2.31
T73G	40
I133S	1.47
R163N	10.5
D144F	345
S11H	1.39
E129L	3.76
T39L	3.37
I105C	19.1
V70Y	87.7
E174R	21.5
A158M	16.9
G23P	54.7
T17W	44.7
T1G	1.47
I12Q	108
V43Q	56.1

Set 3
Target: XBP1, bZIP domain (human)
Method: DHFR protein complementation
Medium: yeast
Setting: single substitutions, most at no-binding floor
Baseline: wild-type JUN-FOS pair
Reading: higher = stronger binding
Starting sequence: JUN, bZIP domain (human); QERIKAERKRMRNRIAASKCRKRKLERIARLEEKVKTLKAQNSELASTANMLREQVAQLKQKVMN; partner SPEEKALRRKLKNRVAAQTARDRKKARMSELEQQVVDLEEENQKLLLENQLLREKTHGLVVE
Change	binding fitness
S47V	-0.685 natural log
A49W	-1.36 natural log
E44Q	-0.761 natural log
S47R	-0.317 natural log
L38Q	-1.54 natural log
T48L	-1.15 natural log
K36L	-0.917 natural log
A29Y	-1.23 natural log
E33M	-1.14 natural log
K39L	-1.19 natural log
E54V	-1.26 natural log
L45Q	-1.51 natural log
L38Y	-1.55 natural log
K36H	-1.17 natural log
A57E	-0.437 natural log
A40G	-1.27 natural log
S43P	-1.45 natural log
E44L	-0.94 natural log
K36R	-0.436 natural log
K39D	-1.44 natural log
A40N	-1.18 natural log
M51E	-0.602 natural log
L31G	-1.47 natural log
A29G	-1.21 natural log
E54T	-1.11 natural log

Set 4
Target: Transcriptional repressor CTCF (CTCF, Homo sapiens, UniProt P49711, residues 1-727, full length assumed)
Method: protein-binding microarray
Form: double-stranded DNA, one strand shown
Medium: in vitro
Tested at: not given
Setting: k-mer, scored over probes, only values ≥0.25
Reading: higher = stronger binding
Target sequence (chain): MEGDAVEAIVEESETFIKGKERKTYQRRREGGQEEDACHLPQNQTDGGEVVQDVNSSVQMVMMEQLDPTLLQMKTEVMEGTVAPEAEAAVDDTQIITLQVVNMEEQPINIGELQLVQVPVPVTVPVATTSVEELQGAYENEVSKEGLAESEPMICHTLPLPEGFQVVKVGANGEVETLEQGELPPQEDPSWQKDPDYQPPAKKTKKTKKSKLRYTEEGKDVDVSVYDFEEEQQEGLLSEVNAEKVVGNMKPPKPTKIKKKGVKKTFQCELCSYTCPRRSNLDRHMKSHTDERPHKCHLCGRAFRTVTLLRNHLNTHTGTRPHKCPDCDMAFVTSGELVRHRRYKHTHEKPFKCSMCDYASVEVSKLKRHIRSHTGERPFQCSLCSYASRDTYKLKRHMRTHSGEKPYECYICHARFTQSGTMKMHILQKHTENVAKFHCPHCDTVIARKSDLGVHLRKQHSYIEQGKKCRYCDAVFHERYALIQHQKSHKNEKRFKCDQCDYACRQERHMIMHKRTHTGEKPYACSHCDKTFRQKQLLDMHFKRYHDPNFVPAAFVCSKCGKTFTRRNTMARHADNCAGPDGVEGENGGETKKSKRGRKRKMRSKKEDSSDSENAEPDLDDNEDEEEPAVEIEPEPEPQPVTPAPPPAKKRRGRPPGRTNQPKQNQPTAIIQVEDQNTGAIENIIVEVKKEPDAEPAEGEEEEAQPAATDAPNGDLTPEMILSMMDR
Strand	E-score
AGTAAATA	0.357
CGATATTA	0.288
AAACATGT	0.294
ACAATAAT	0.298
CGTAAATC	0.255
GCAAAACA	0.253
AAAAGTAA	0.264
ATATTGTA	0.265
AATATTAA	0.329
GACATATA	0.273
ATATTTAC	0.397
AAAATAGG	0.267
TATGTAAA	0.286
CATAAATA	0.346
ATTATTAC	0.318
AAATGTGC	0.278
ACACCACT	0.268
ATGTATTG	0.273
AACAATAA	0.276
AGAAGTAT	0.251
CGCAATAG	0.258
GATAAATA	0.272
CTTTGCGC	0.286
AATAACAT	0.355
TGCGCTAA	0.277

Set 5
Target: CCNE1, cyclin fold, Cln2 fusion (human)
Method: yeast growth competition, sequencing
Medium: yeast
Setting: strong parent motif
Baseline: not given
Reading: higher = stronger binding
Starting sequence: DBF4B docking peptide (human); LGYLYLLLTQSLW
Change	normalised enrichment score
LGYLYLLLAQSLW [T9A]	1.19
LGYLYLLLTASLW [Q10A]	1.48
LGYLALLLTQSLW [Y5A]	1.14
LGYLYLLLTQALW [S11A]	1.19
LGYLYLALTQSLW [L7A]	1.1
LGYLYLLLTQSLA [W13A]	0.655
AGYLYLLLTQSLW [L1A]	1.45

Set 6
Target: Histone acetyltransferase KAT6A, both winged helices, GST fusion (KAT6A, Homo sapiens, UniProt Q92794, residues 1-181)
Method: protein binding microarray
Form: double-stranded DNA, one strand shown
Medium: in vitro
Tested at: not given
Setting: 8-mer, flanks averaged, mean of 2 arrays, mostly near background
Baseline: not given
Reading: higher = stronger binding
Residues (chain): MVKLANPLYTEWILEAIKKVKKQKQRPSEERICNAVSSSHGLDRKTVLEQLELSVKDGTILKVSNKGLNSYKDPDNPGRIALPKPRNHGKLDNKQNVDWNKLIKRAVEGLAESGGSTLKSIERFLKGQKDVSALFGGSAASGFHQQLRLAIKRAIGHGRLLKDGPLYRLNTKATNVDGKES
Strand	E-score
CAACATTA	-0.0551
GGTGTACA	-0.0538
CGTAATGC	0.115
AGACGTAT	0.0183
GCCGACTA	0.147
AACTGATG	0.0901
GGCGACAA	0.0968
CTCACGGA	0.221
CGATACAC	-0.0109
CATGCTTA	-0.0933
AAATTAAG	-0.102
GGAGATCC	-0.0443
AGCTTAAA	0.0271
CACGGCCC	0.172
GGGAAGGA	-0.101
ACGTCACC	-0.0726
ACACTCAG	-0.103
CAACAAGG	-0.128
AGTTCTTG	-0.0753
ACCTGTAG	-0.167
ATGACAAT	-0.158
GCGGTTAC	0.292
GTCTACAC	-0.027
ATGACCTC	-0.0945
CCTATGCC	-0.0454

Excerpt of the above (set 1):
Strand	fluorescence intensity [a.u.]
AGTCTGTGCTAGTCCCACGTGTGAATGCCAAGGTTGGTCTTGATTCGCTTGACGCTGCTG	488
ACTAATGAATTGGTCCACGTTTAGCTTACTTCCCGAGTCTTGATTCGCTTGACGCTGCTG	86.8
CATACCCAACCTTGACGCGTGGGTGAAGATATTTGTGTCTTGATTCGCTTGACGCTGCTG	78
GACAAATTAGATAATGAAAAAGATATGGGGTGGAAGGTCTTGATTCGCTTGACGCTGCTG	78.6
AAAGCGGTAATTTGTCACGTTACTTCACATATCTATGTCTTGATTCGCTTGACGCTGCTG	866
CGGGGTTAAGTTTCTCACGTGTTTTGCTTGCAGCAGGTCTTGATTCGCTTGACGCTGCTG	970
AAATTACTAAGTTGTCACCCTACTTACCCCGTATGAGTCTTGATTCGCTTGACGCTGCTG	77.3
TACCTAACCCATTTGCACGTGTCGGTAATAAGAAAAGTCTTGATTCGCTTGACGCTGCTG	2350
CCCACCGTAAGGAAACACGTGGTGATGGTGGTATATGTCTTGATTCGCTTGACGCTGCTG	1030
CTTTCCCGATCTTGATATGTGGGTGTAGCACATTTGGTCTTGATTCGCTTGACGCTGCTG	80.1
ATCATGGATGCCCTTTCCGTGATGGGAGTAACGAGAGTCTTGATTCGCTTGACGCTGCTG	69.7
CACGATAATTTATACGTAATCTGGCCCCTTCTTTCGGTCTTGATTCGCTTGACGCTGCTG	73.4
TTGCTTGCGCTTCTGCATGTGCTTGTGCTTGTGCTTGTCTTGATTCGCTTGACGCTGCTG	83.7
AAAGCGGTAATTTGAAAGGTGGGTGCAGATATCTATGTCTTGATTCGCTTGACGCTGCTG	63.9
